Measurements of several laboratories.
Protocols differ between the studies behind these lines. pEC50, pIC50: −log10 of the molar value.
Target: C-X-C chemokine receptor type 4 (CXCR4, Homo sapiens, UniProt P61073)

SMILES | observed | mode | technique | measurement | result
N=C(N)NCCC[C@@H]1NC(=O)[C@@H]2CSSC[C@H](NC(=O)[C@H](Cc3ccc4ccccc4c3)NC(=O)[C@H](CCCNC(=N)N)NC(=O)[C@H](CCCNC(=N)N)NC(=O)[C@H]3CCCN3C(=O)CNC1=O)C(=O)N[C@@H](Cc1ccc(O)cc1)C(=O)N[C@@H](CCC(N)=O)C(=O)N[C@@H](CCCCNC(=O)CCOCCOCCOCCOCCOCCOCCOCCOCCOCCOCCOCCOCCNC(=O)CN1CCN(CC(=O)O)CCN(CC(=O)O)CCN(CC(=O)O)CC1)C(=O)N1CCC[C@@H]1C(=O)N1CCC[C@H]1C(=O)N[C@@H](Cc1ccc(O)cc1)C(=O)N[C@@H](CCCNC(=N)N)C(=O)N[C@@H](CCCNC(N)=O)C(=O)N2 |  |  |  | pIC50 | 8.85
CN1C(=O)[C@@H](Cc2ccc(O)c(I)c2)NC(=O)CNC(=O)[C@H](Cc2ccc3ccccc3c2)NC(=O)[C@H](CCCNC(=N)N)NC(=O)[C@H]1CCCNC(=S)Nc1ccc(CN2CCN(CC(=O)O)CCN(CC(=O)O)CC2)cc1 | ligand displacement |  | radioligand | pIC50 | 7.00
CC(C)C[C@@H](N)C(=O)NCC(=O)N[C@H](C)C(=O)N[C@H](CO)C(=O)N[C@H](Cc1c[nH]c2ccccc12)C(=O)N[C@H](Cc1c[nH]cn1)C(=O)N[C@H](CCCNC(=N)N)C(=O)N1CCC[C@@H]1C(=O)N[C@H](CC(=O)O)C(=O)N[C@H](CCCCN)C(=O)N[C@H](CSSC[C@@H](NC(=O)[C@@H](CCCCN)NC(=O)[C@@H](CC(=O)O)NC(=O)[C@H]1CCCN1C(=O)[C@@H](CCCNC(=N)N)NC(=O)[C@@H](Cc1c[nH]cn1)NC(=O)[C@@H](Cc1c[nH]c2ccccc12)NC(=O)[C@@H](CO)NC(=O)[C@@H](C)NC(=O)CNC(=O)[C@H](N)CC(C)C)C(=O)N[C@H](C)C(=O)N[C@H](CC(C)C)C(=O)NCC(=O)N[C@H](Cc1ccc(O)cc1)C(=O)N[C@H](CCC(N)=O)C(=O)N[C@H](CCCCN)C(=O)N[C@H](CCCNC(=N)N)C(=O)N1CCC[C@@H]1C(=O)N[C@H](CC(C)C)C(=O)N1CCC[C@@H]1C(N)=O)C(=O)N[C@H](C)C(=O)N[C@H](CC(C)C)C(=O)NCC(=O)N[C@H](Cc1ccc(O)cc1)C(=O)N[C@H](CCC(N)=O)C(=O)N[C@H](CCCCN)C(=O)N[C@H](CCCNC(=N)N)C(=O)N1CCC[C@@H]1C(=O)N[C@H](CC(C)C)C(=O)N1CCC[C@@H]1C(N)=O | ligand displacement |  |  | pIC50 | 8.52
N=C(N)NCCC[C@@H]1NC(=O)[C@@H]2CSSC[C@H](NC(=O)[C@H](Cc3ccc4ccccc4c3)NC(=O)[C@H](CCCNC(=N)N)NC(=O)[C@H](CCCNC(=N)N)NC(=O)[C@H]3CCCN3C(=O)CNC1=O)C(=O)N[C@@H](Cc1ccc(O)cc1)C(=O)N[C@@H](CCC(N)=O)C(=O)N[C@@H](CCCCNC(=O)CN1CCN(CC(=O)O)CCN(CC(=O)O)CCN(CC(=O)O)CC1)C(=O)N1CCC[C@@H]1C(=O)N1CCC[C@H]1C(=O)N[C@@H](Cc1ccc(O)cc1)C(=O)N[C@@H](CCCNC(=N)N)C(=O)N[C@@H](CCCNC(N)=O)C(=O)N2 |  |  |  | pIC50 | 9.33
N=C(N)NCCC[C@H](NC(=O)[C@@H]1CSSC[C@H](NC(=O)[C@H](Cc2ccc3ccccc3c2)NC(=O)[C@H](CCCNC(=N)N)NC(=O)[C@H](CCCNC(=N)N)NC(=O)c2ccc(F)cc2)C(=O)N[C@@H](Cc2ccc(O)cc2)C(=O)N[C@@H](CCCNC(N)=O)C(=O)N[C@@H](CCCCNC(=O)CN2CCN(CC(=O)O)CCN(CC(=O)O)CCN(CC(=O)O)CC2)C(=O)N[C@H](CCCCNC(=O)CN2CCN(CC(=O)O)CCN(CC(=O)O)CCN(CC(=O)O)CC2)C(=O)N2CCC[C@H]2C(=O)N[C@@H](Cc2ccc(O)cc2)C(=O)N[C@@H](CCCNC(=N)N)C(=O)N[C@@H](CCCNC(N)=O)C(=O)N1)C(N)=O | ligand displacement |  | radioligand | pIC50 | 8.61
CC(C)C[C@@H](N)C(=O)NCC(=O)N[C@H](C)C(=O)N[C@H](CO)C(=O)N[C@H](Cc1c[nH]c2ccccc12)C(=O)N[C@H](Cc1cnc[nH]1)C(=O)N[C@H](CCCNC(=N)N)C(=O)N1CCC[C@@H]1C(=O)N[C@H](CC(=O)O)C(=O)N[C@H](CCCCN)C(N)=O | ligand displacement in cells |  |  | pIC50 | 5.70
CC(=O)[O][Cu+].CN1CCCN2CCN(C)CCCN(CC1)CC2 | ligand displacement |  | flow cytometry | pIC50 | 7.55
CN1C(=O)[C@@H](Cc2ccc(O)c(I)c2)NC(=O)CNC(=O)[C@H](Cc2ccc3ccccc3c2)NC(=O)[C@H](CCCNC(=N)N)NC(=O)[C@H]1CCCNC(=O)c1ccc(CNC(=O)CN2CCN(CC(=O)O)CCN(CC(=O)O)CC2)cc1 | ligand displacement |  | radioligand | pIC50 | 7.56
CCOc1ccccc1-c1nnc2n1N=C(c1ccc(N3CCCC3=O)cc1)CS2 | cAMP | agonist |  | pEC50 | 7.10
CC(=O)[O][Cu+].CN1CCN2CCN(C)CCN(CC1)CC2 | calcium signal | antagonist | fluorescence | pIC50 | 6.53
CC(C)C[C@@H](N)C(=O)NCC(=O)N[C@H](C)C(=O)N[C@H](CO)C(=O)N[C@H](Cc1c[nH]c2ccccc12)C(=O)N[C@H](Cc1c[nH]cn1)C(=O)N[C@H](CCCNC(=N)N)C(=O)N1CCC[C@@H]1C(=O)N[C@H](CC(=O)O)C(=O)N[C@H](CCCCN)C(=O)N[C@H](CCCCN)C(=O)N[C@H](CCCNC(=N)N)C(=O)NCCCCCC(=O)N[C@@H](CCCCN)C(=O)N[C@@H](CCCNC(=N)N)C(=O)N[C@@H](CCCCN)C(=O)N[C@H](C(=O)N[C@@H](CC(N)=O)C(=O)N[C@@H](CC(N)=O)C(=O)N[C@@H](CC(N)=O)C(=O)N1CCC[C@H]1C(=O)N[C@@H](CCCNC(=N)N)C(=O)N[C@H](C(=O)N[C@@H](CS)C(N)=O)[C@@H](C)O)[C@@H](C)O | cell migration | antagonist |  | pIC50 | 5.54

Repeated from above:
SMILES | observed | mode | technique | measurement | result
CN1C(=O)[C@@H](Cc2ccc(O)c(I)c2)NC(=O)CNC(=O)[C@H](Cc2ccc3ccccc3c2)NC(=O)[C@H](CCCNC(=N)N)NC(=O)[C@H]1CCCNC(=S)Nc1ccc(CN2CCN(CC(=O)O)CCN(CC(=O)O)CC2)cc1 | ligand displacement |  | radioligand | pIC50 | 7.00
